{"data": "Measured values pooled from the literature", "organism": "SARS-CoV-2", "note": "“And” joins repeats or separate records; there may be more than shown. Numbers after ± are the reported error."}
{"Substance": "CC(=O)NCC(=O)NC1(C(=O)NC(c2ccccc2)c2ccccc2)CCCCC1", "assay": "plaque formation, plaque reduction", "test system": "Vero E6", "setting": "72 h", "EC50": "> 50 µM"}
{"Substance": "CCC(CC)COC(=O)[C@H](C)N[P@](=O)(OC[C@H]1O[C@@](C#N)(c2ccc3c(N)ncnn23)[C@H](O)[C@@H]1O)Oc1ccccc1", "assay": "viral replication", "test system": "Vero C1008, prototype", "EC50": "1.3 µM"}
{"Substance": "CC(C)=CCC1=C(O)C(=O)c2ccccc2C1=O", "assay": "viral replication", "test system": "Calu-3", "setting": "48 h", "EC50": "1.5 ± 0.1 µM"}
{"Substance": "CCC(CC)COC(=O)[C@H](C)N[P@](=O)(OC[C@H]1O[C@@](C#N)(c2ccc3c(N)ncnn23)[C@H](O)[C@@H]1O)Oc1ccccc1", "assay": "viral replication", "EC50": "7.2 µM"}
{"Substance": "calpain inhibitor III", "assay": "viral replication", "test system": "Huh-7-ACE2, USA-WA1/2020", "EC50": "0.086 µM"}
{"Substance": "COc1cc(Nc2ccnc3ccc(Br)cc23)cc(OC)c1OC", "assay": "viral replication", "test system": "Vero E6, USA-WA1/2020", "EC50": "0.2 µM"}
{"Substance": "CC(C)(C)[C@H](NC(=O)C(F)(F)F)C(=O)N1C[C@H]2[C@@H]([C@H]1C(=O)N[C@@H](C[C@@H]1CCNC1=O)C(=O)c1nc3c(F)ccc(F)c3s1)C2(C)C", "assay": "viral replication", "test system": "Vero C1008, JPN/TY/WK-521 (ancestral Wuhan)", "EC50": "0.092 µM"}
{"Substance": "COc1cc(Nc2c(C#N)cnc3cc(OCCCN4CCN(C)CC4)c(OC)cc23)c(Cl)cc1Cl", "test system": "Vero C1008, WIV04", "setting": "24 h", "EC50": "2.45 µM"}
{"Substance": "Nc1ncnc2c1ncn2[C@@H]1C(F)=C(CO)[C@@H](O)[C@H]1O", "assay": "viral replication, spike protein immunostaining", "test system": "Vero", "setting": "48 h", "EC50": "> 23.1 µM"}
{"Substance": "Cn1cnc(Cn2c(=O)[nH]/c(=N\\c3cc4cn(C)nc4cc3Cl)n(Cc3cc(F)c(F)cc3F)c2=O)n1", "assay": "viral replication", "test system": "USA-WA1/2020", "setting": "24 h", "EC50": "0.1 µM"}
{"Substance": "CCOc1ccc(NC(=O)C(=O)NCCc2csc3nc(-c4cccs4)nn23)cc1", "assay": "plaque formation, plaque reduction", "test system": "Vero E6", "setting": "72 h", "EC50": "> 50 µM"}
{"Substance": "CSc1ccc2c(c1)C(N1CCN(C)CC1)Cc1ccccc1S2 (stereo not drawn)", "assay": "viral replication, high-content imaging screen", "setting": "cell-based", "EC50": "> 100 µM"}
{"Substance": "Cc1ccc(NS(=O)(=O)c2cccc(C(=O)NC3CCN(c4ncnc5[nH]cnc45)CC3)c2)cc1", "assay": "viral replication", "test system": "A549-ACE2, Wuhan-Hu-1", "setting": "24 h", "EC50": "16.2 µM"}
{"Substance": "CCCCCCC(C)(C)c1cc(O)c([C@H]2CC(=O)[C@H]3C[C@@H]2C3(C)C)c(OC(=O)/C=C/C(=O)O)c1", "assay": "viral replication, GFP plate reader screen", "setting": "cell-based", "EC50": "> 100 µM"}
{"Substance": "Cn1cnc(Cn2c(=O)[nH]/c(=N\\c3cc4cn(C)nc4cc3Cl)n(Cc3cc(F)c(F)cc3F)c2=O)n1", "test system": "Vero C1008, XBB.1", "EC50": "0.09 µM and 0.08 µM"}
{"Substance": "COc1ccc(C(=O)Nc2ccccc2C(=O)N[C@H](C(=O)Nc2ccccc2)C(C)C)cc1", "assay": "plaque formation, plaque reduction", "test system": "Vero E6", "setting": "72 h", "EC50": "> 50 µM"}
{"Substance": "Cc1cccn2c(=O)c3cc(C(=O)Nc4ccc(N(C)C)cc4)n(C)c3nc12", "assay": "viral replication, qPCR", "test system": "Vero E6", "EC50": "0.0376 ± 0.00423 µM"}
{"Substance": "[N-]=[N+]=N[C@]1(CO)O[C@@H](n2ccc(N)nc2=O)[C@@H](F)[C@@H]1O", "assay": "viral replication", "test system": "A549-hACE2, USA-WA1/2020 nLuc reporter", "EC50": "> 100 µM"}
{"Substance": "Cc1ccc(-c2cc(C(F)(F)F)n3ncc(C(=O)Nc4sc5c(c4C(N)=O)CCCC5)c3n2)cc1", "assay": "plaque formation, plaque reduction", "test system": "Vero E6", "setting": "72 h", "EC50": "14.3 ± 9.6 µM"}
{"Substance": "CC[C@H](NC(=O)[C@H](CS(=O)(=O)CC1CC1)N[C@@H](c1ccc(F)cc1)C(F)(F)F)C(=O)C(=O)NC1CC1", "assay": "viral replication", "test system": "Huh-7-ACE2, USA-WA1/2020", "setting": "24 h", "EC50": "0.052 µM"}
{"Substance": "CC(C)(C)[C@H](NC(=O)C(F)(F)F)C(=O)N1C[C@H]2[C@@H]([C@H]1C(=O)N[C@H](C#N)C[C@@H]1CCNC1=O)C2(C)C", "assay": "viral replication", "test system": "Vero C1008, WT replicon ΔS-E-M", "setting": "24 h", "EC50": "0.0065 µM"}
{"Substance": "COCCn1c2c([n+](Cc3cnccn3)c1C)C(=O)c1ccccc1C2=O", "assay": "virus-induced cytopathic effect", "test system": "Vero E6, USA-WA1/2020", "setting": "72 h", "EC50": "> 20 µM"}
{"Substance": "CO[C@@H]1[C@@H](OC)[C@H](C)[C@@](O)(CC(=O)O)O[C@H]1[C@H](C)[C@H]1O[C@@]2(CC[C@@](C)([C@H]3CC[C@@](C)([C@@H]4O[C@@H]([C@H]5O[C@](C)(O)[C@H](C)C[C@@H]5C)C[C@@H]4O[C@@H]4C[C@H](OC)[C@@H](OC)[C@H](C)O4)O3)O2)C[C@H](O)[C@H]1C", "assay": "cytopathic effect", "test system": "Vero E6-hTMPRSS2", "EC50": "0.064 µM"}
{"Substance": "COc1cc(Nc2ccnc3ccc(Br)cc23)cc(OC)c1OC", "test system": "VeroE6/TMPRSS2", "setting": "24 h", "EC50": "0.75 µM"}
{"Substance": "Cc1nc2ccccn2c(=O)c1CCN1CCC(=C(c2ccc(F)cc2)c2ccc(F)cc2)CC1", "assay": "viral replication, high-content imaging screen", "setting": "cell-based", "EC50": "> 100 µM"}
{"Substance": "N#C[C@@]1(c2ccc3c(N)ncnn23)O[C@H](CO)[C@@H](O)[C@H]1O", "assay": "viral replication", "test system": "A549-ACE2-TMPRSS2, WA1", "setting": "24 h", "EC50": "2.2 µM"}
{"Substance": "CCC(CC)COC(=O)[C@H](C)N[P@](=O)(OC[C@H]1O[C@@](C#N)(c2ccc3c(N)ncnn23)[C@H](O)[C@@H]1O)Oc1ccccc1", "assay": "cytopathic effect", "test system": "Vero, UC-1074", "setting": "5 days", "EC50": "1.1 ± 0.1 µM"}
{"Substance": "CCC(CC)COC(=O)[C@H](C)N[P@](=O)(OC[C@H]1O[C@@](C#N)(c2ccc3c(N)ncnn23)[C@H](O)[C@@H]1O)Oc1ccccc1", "assay": "viral replication, qRT-PCR of viral RNA", "test system": "Vero, Washington", "EC50": "1.8 ± 0.1 µM"}
{"Substance": "CCOc1ccccc1NC(=O)C(=O)NCC(c1cccnc1)N1CCN(c2ccccc2)CC1 (stereo not drawn)", "assay": "plaque formation, plaque reduction", "test system": "Vero E6", "setting": "72 h", "EC50": "12.5 ± 2.1 µM"}
{"Substance": "COc1cccc2[nH]c(C(=O)N[C@@H](CC(C)C)C(=S)N[C@@H](C[C@@H]3CCNC3=O)C(=O)c3nc4ccccc4s3)cc12", "assay": "viral replication, RT-qPCR", "test system": "VeroE6, WK-521", "EC50": "2.7 ± 0.15 µM"}
{"Substance": "CN(C)c1ccc(N(Cc2cc(Cl)cs2)C(=O)Cc2cncc3cccc(O)c23)cc1", "assay": "nucleocapsid staining", "test system": "Caco-2, Omicron XBB.1.5", "EC50": "0.05 ± 0.03 µM"}
{"Substance": "Cc1c(S(=O)(=O)N2CCc3n[nH]cc3C2)cc(C(=O)NCc2c(F)cccc2N2CCCC2)n1C", "assay": "viral replication", "test system": "Huh7.5, WA1/2020", "EC50": "0.044 µM"}
{"Substance": "CC(C)(C)[C@H](NC(=O)C(F)(F)F)C(=O)N1C[C@H]2[C@@H]([C@H]1C(=O)N[C@H](C#N)C[C@@H]1CCNC1=O)C2(C)C", "assay": "viral replication, qRT-PCR of viral RNA", "test system": "Calu-3, Washington", "EC50": "1.8 ± 0.8 µM"}
{"Substance": "Nc1nc(N)c2nnn([C@@H]3C(F)=C(CO)[C@@H](O)[C@H]3O)c2n1", "assay": "viral replication, spike protein immunostaining", "test system": "Vero", "setting": "48 h", "EC50": "> 100 µM"}
{"Substance": "COc1ccc(N(Cc2cc(Cl)cs2)C(=O)Cc2cncc3ccccc23)cc1", "assay": "viral replication", "test system": "Calu-3, Omicron BA.1", "EC50": "1 µM"}
{"Substance": "Nc1nc2nn[nH]c2c(=O)[nH]1", "assay": "viral replication, high-content imaging screen", "setting": "cell-based", "EC50": "> 50.1 µM"}
{"Substance": "N=C(N)Nc1ccc(C(=O)Oc2ccc3cc(C(=N)N)ccc3c2)cc1", "assay": "viral replication", "test system": "HEK293 ACE2/TMPRSS2", "setting": "fixed 7:1 molar combination", "EC50": "0.46 µM"}
{"Substance": "O=C(Nc1ccccc1F)c1cc2c(=O)n3ccccc3nc2n1Cc1ccccc1", "assay": "viral replication", "test system": "Vero E6", "EC50": "0.0138 µM"}
{"Substance": "CCOC(=O)C(NC(=O)COc1ccccc1)(Nc1nc2ccccc2s1)C(F)(F)F (stereo not drawn)", "assay": "plaque formation, plaque reduction", "test system": "Vero E6", "setting": "72 h", "EC50": "23.1 ± 5.5 µM"}
{"Substance": "CN(C)c1ccc(N(Cc2cc(Cl)cs2)C(=O)Cc2cncc3ccccc23)cc1", "assay": "nucleocapsid staining", "test system": "Caco-2, Omicron BQ.1.1", "EC50": "0.2 ± 0.1 µM"}
{"Substance": "COc1c2ccoc2c(OCC=C(C)C)c2oc(=O)ccc12", "assay": "viral replication", "test system": "Calu-3, mNeonGreen reporter", "EC50": "6.4 ± 0.9 µM"}
{"Substance": "CNC(=O)[C@@H](c1ccccc1)N1CCc2cc(OC)c(OC)cc2[C@@H]1CCc1ccc(C(F)(F)F)cc1", "assay": "viral replication, GFP plate reader screen", "setting": "cell-based", "EC50": "18.6 µM"}
{"Substance": "C1=C(c2ccc(CN3CCCCC3)cc2)N2CCN=C2c2ccccc21", "assay": "viral replication", "test system": "293T-ACE2, USA-WA1/2020", "setting": "24 h", "EC50": "0.12 µM"}
{"Substance": "NCC[C@H](Oc1ccc(C(F)(F)F)cc1)c1ccccc1", "assay": "viral replication, high-content imaging screen", "setting": "cell-based", "EC50": "> 100 µM"}
{"Substance": "Cc1cc(NC(=O)c2cc3c(=O)n4cccc(C)c4nc3n2C)ccc1Br", "assay": "viral replication", "test system": "Vero E6", "EC50": "0.109 µM"}
{"Substance": "O=C(Nc1ccccc1C(=O)NCc1ccccc1)c1cc(S(=O)(=O)N2CCOCC2)ccc1F", "assay": "plaque formation, plaque reduction", "test system": "Vero E6", "setting": "72 h", "EC50": "> 50 µM"}
{"Substance": "C[C@@H]1CS/C(=N\\NC(=O)C(=O)[C@H](NC(=O)C2CCCCCC2)C2CCOCC2)N1C", "assay": "viral replication", "test system": "293T-ACE2, USA-WA1/2020", "setting": "24 h", "EC50": "0.042 µM"}
{"Substance": "CC(C)(C)c1ccc(C(O)CCCN2CCC(C(O)(c3ccccc3)c3ccccc3)CC2)cc1 (stereo not drawn)", "assay": "viral replication, high-content imaging screen", "setting": "cell-based", "EC50": "> 100 µM"}
{"Substance": "CC(C)(C)OC(=O)Nc1cccn([C@@H](CC2CC2)C(=O)N[C@@H](C[C@@H]2CCNC2=O)C(=O)C(=O)NCc2ccccc2)c1=O", "assay": "viral replication", "EC50": "0.8 to 3.4 µM"}
{"Substance": "N=C(N)c1ccc(C=C2c3ccccc3-c3ccccc32)cc1", "assay": "viral replication, GFP plate reader screen", "setting": "cell-based", "EC50": "3.47 µM"}
{"Substance": "CCNC/C=C\\CNCCCCNCCCCNC/C=C\\CNCC", "assay": "viral replication", "test system": "293T-ACE2, USA-WA1/2020", "setting": "24 h", "EC50": "~0.5 µM"}
{"note": "A few entries again:"}
{"Substance": "CN(C)c1ccc(N(Cc2cc(Cl)cs2)C(=O)Cc2cncc3ccccc23)cc1", "assay": "nucleocapsid staining", "test system": "Caco-2, Omicron BQ.1.1", "EC50": "0.2 ± 0.1 µM"}
{"Substance": "COc1c2ccoc2c(OCC=C(C)C)c2oc(=O)ccc12", "assay": "viral replication", "test system": "Calu-3, mNeonGreen reporter", "EC50": "6.4 ± 0.9 µM"}
{"Substance": "CNC(=O)[C@@H](c1ccccc1)N1CCc2cc(OC)c(OC)cc2[C@@H]1CCc1ccc(C(F)(F)F)cc1", "assay": "viral replication, GFP plate reader screen", "setting": "cell-based", "EC50": "18.6 µM"}
{"Substance": "C1=C(c2ccc(CN3CCCCC3)cc2)N2CCN=C2c2ccccc21", "assay": "viral replication", "test system": "293T-ACE2, USA-WA1/2020", "setting": "24 h", "EC50": "0.12 µM"}
{"Substance": "NCC[C@H](Oc1ccc(C(F)(F)F)cc1)c1ccccc1", "assay": "viral replication, high-content imaging screen", "setting": "cell-based", "EC50": "> 100 µM"}
